Results of several laboratories.
Every numbered part comes from another study and shows a few of its results, in no order.

Block 1 — technique: competition protein-binding microarray; molecule type: double-stranded DNA, one strand shown; medium: in vitro; tested at: 2 µM; added: Cbf1 competitor, 0.05 µM; reading: higher = stronger binding
Target: Phosphate system positive regulatory protein PHO4, full length, GST-tagged (PHO4, Saccharomyces cerevisiae, UniProt P07270, residues 1-312)
Notes: whole 60-bp probe, lowest competitor level
Target sequence (chain): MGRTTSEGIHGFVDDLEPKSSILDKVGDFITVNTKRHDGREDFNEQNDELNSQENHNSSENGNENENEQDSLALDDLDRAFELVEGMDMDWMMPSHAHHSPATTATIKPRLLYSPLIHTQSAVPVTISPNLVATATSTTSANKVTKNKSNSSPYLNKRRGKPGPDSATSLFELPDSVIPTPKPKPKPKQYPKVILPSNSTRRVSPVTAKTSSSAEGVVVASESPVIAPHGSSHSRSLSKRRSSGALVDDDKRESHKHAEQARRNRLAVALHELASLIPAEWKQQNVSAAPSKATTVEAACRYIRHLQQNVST
`CTTCTGTAAATTTGTTGCGTGGGTGGACGCGCCCCGGTCTTGATTCGCTTGACGCTGCTG` gave a fluorescence intensity of 6780 a.u.
For `GTTTCGTAAGTAGTGCGCGTGCAAATTTCGCCCGTTGTCTTGATTCGCTTGACGCTGCTG`, the fluorescence intensity was 9260 a.u.
With `ATGATGTTGCATTTGCACGTGTTTTGTTGTACCTCTGTCTTGATTCGCTTGACGCTGCTG` the fluorescence intensity was 16900 a.u.
With `CATACCCAACCTTGACTGGTGGGTGAAGATATTTGTGTCTTGATTCGCTTGACGCTGCTG` the fluorescence intensity was 3640 a.u.

Block 2 — technique: protein binding microarray; molecule type: double-stranded DNA, one strand shown; medium: in vitro; tested at: not given; reference: not given; reading: higher = stronger binding
Target: Histone acetyltransferase KAT6A, both winged helices, GST fusion (KAT6A, Homo sapiens, UniProt Q92794, residues 1-181)
Notes: 8-mer, flanks averaged, mean of 2 arrays, mostly near background
Construct (chain): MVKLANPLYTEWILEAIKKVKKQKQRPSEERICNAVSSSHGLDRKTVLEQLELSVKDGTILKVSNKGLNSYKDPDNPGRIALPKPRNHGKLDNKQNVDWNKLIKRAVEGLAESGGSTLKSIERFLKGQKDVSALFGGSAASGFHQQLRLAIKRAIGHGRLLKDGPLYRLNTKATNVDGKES
`CCTCAAGA` gave an E-score of -0.128.
For `CAGGTAAC`, the E-score was -0.193.
`CCTTTACG` has an E-score of 0.0736.
For `CACAGATA`, the E-score was -0.159.
The E-score of `GAAGCCCC` is reported as -0.0213.

Block 3 — technique: aptamer microarray, sandwich; molecule type: DNA with 2'F-ANA; medium: in vitro; tested at: 200 nM; added: Cy3 exosite-II aptamer, 400 nM; reading: higher = stronger binding
Target: Prothrombin, mature alpha-thrombin (F2, Homo sapiens, UniProt P00734)
Notes: whole 15-mer aptamer, many near background
For `GGTTGGTGTGGTTGG (2'F-ANA at 3 6 9 11 13)`, “mean fluorescence intensity” read 874 a.u.
Under “mean fluorescence intensity”, `GGTTGGTGTGGTTGG (2'F-ANA at 4 8 11 12)` is recorded as 505 a.u.
For `GGTTGGTGTGGTTGG (2'F-ANA at 1 2 4 6 8 9 12 13 15)`, “mean fluorescence intensity” read 171 a.u.
For `GGTTGGTGTGGTTGG (2'F-ANA at 6 7 12)`, “mean fluorescence intensity” read 842 a.u.

Mixed results
`PhoQ, residues 284 288 289 292 302 303 SSYNSA` gave a fold induction of 1.48 (PhoP, residues 12 14 15 18 19 LHTVM (Escherichia coli, UniProt P23836); Sort-seq, refers to: YFP reporter; E. coli; PhoQ-PhoP variant library, added: 10 µM Mg2+; reference: high Mg2+ state, higher = stronger signaling).
